{"data": "Measurements of several laboratories", "note": "± gives the spread as reported."}
{"Compound": "O=C1NC2(CC2)COc2ncc(F)cc2[C@H]2COCCN2c2ccn3ncc1c3n2", "system": "Sprague-Dawley rat, female, serum", "conditions": "oral, 2.5 mg/kg/day, 4 weeks daily, end of recovery period", "measurement": "glucose", "value": "7.58 ± 0.84 mmol/L"}
{"Compound": "CN1Cc2cc(Cl)ccc2-n2c(nnc2C2CCN(c3cccc([18F])n3)CC2)C1", "test": "PET two-tissue compartment model", "system": "rhesus monkey, cerebellum", "conditions": "intravenous, dose not given, 90 min scan, baseline scan", "measurement": "total volume of distribution", "value": "0.94 ± 0.36 mL/cm3"}
{"Compound": "COc1ccc([C@@H]2CC(=O)c3c(O)cc(O[C@@H]4O[C@H](CO)[C@@H](O)[C@H](O)[C@H]4O[C@@H]4O[C@@H](C)[C@H](O)[C@@H](O)[C@H]4O)cc3O2)cc1O", "system": "male Sprague-Dawley rats, lean, faeces", "conditions": "oral, 100 mg/kg, 48 h", "measurement": "cumulative faecal excretion", "value": "3350 ± 1220 ng"}
{"Compound": "O=c1c(-c2cnn(-c3ccccc3)c2)c(C(F)(F)F)oc2c(O)c(O)ccc12", "system": "mouse", "conditions": "intraperitoneal, 100 mg/kg, 24 h, DMSO vehicle", "measurement": "trough concentration", "value": "160 nM"}
{"Compound": "CCC1=C(C)C2=C(c3ccc(C(=O)NCCNC(=O)c4ccc(P(=NC5=[O+][Ru-]([Cl])[n+]6ccccc65)(c5ccccc5)c5ccccc5)cc4)cc3)c3c(C)c(CC)c(C)n3[B-](F)(F)[N+]2=C1C.Cc1ccc(C(C)C)cc1.[Cl-]", "system": "DMSO-d6 solution", "measurement": "stability time", "value": "≥ 2.5 weeks"}
{"Compound": "CC(C)C[C@H](NC(=O)CNC(=O)[C@H](CCC(N)=O)NC(=O)[C@H](CC(C)C)NC(=O)[C@H](CC(C)C)NC(=O)[C@H](CCCNC(=N)N)NC(=O)[C@H](CCC(N)=O)NC(=O)[C@H](CC(C)C)NC(=O)[C@H](CCCNC(=N)N)NC(=O)[C@H](C)NC(=O)CNC(=O)[C@H](CCC(=O)O)NC(=O)[C@H](CCCNC(=N)N)NC(=O)[C@H](CC(C)C)NC(=O)[C@H](CCCNC(=N)N)NC(=O)[C@H](CO)NC(=O)[C@H](CC(C)C)NC(=O)[C@H](CCC(=O)O)NC(=O)[C@H](CO)NC(=O)[C@@H](NC(=O)[C@H](Cc1ccccc1)NC(=O)[C@@H](NC(=O)CNC(=O)[C@H](CC(=O)O)NC(=O)C(C)(C)NC(=O)[C@@H](N)Cc1c[nH]cn1)[C@@H](C)O)[C@@H](C)O)C(=O)N[C@@H](CC(C)C)C(=O)N[C@@H](CCC(N)=O)C(=O)NCC(=O)N[C@@H](CC(C)C)C(=O)N[C@H](C(=O)NCC(=O)N[C@@H](CCCCNC(=O)COCCOCCNC(=O)COCCOCCNC(=O)CC[C@H](NC(=O)CCCCCCCCCCCCCCCCC(=O)O)C(=O)O)C(N)=O)C(C)C", "system": "male C57BL/6J mice, diet-induced obese, plasma", "conditions": "subcutaneous, 300 nmol/kg twice daily, 2 h post-dose, day 8", "measurement": "plasma concentration", "value": "0.914 µM"}
{"Compound": "CCCCCCCCCCCC(=O)C(C)C(=O)N1CCC[C@H]1C(=O)NC(C)(C)C(=O)NC(C)(C)C(=O)NC(C)(C)C(=O)N[C@](C)(CC)C(=O)NCCC(=O)N[C@@H](C)C(=O)N[C@](C)(CC)C(=O)N[C@@H](C)C(=O)N[C@@H](CC(C)C)C(=O)N[C@](C)(CC)C(=O)NCCC(=O)N[C@@H](C)C(=O)N[C@](C)(CC)C(=O)NCCC(=O)N[C@@H](C)C(=O)NC(C)(C)C(=O)NC(C)(C)C(=O)NC(C)(C)C(=O)N[C@@H](C)C(=O)N[C@@H](CC(=O)O)C(=O)O (stereo partly shown)", "test": "LC-MS", "system": "50% pooled human serum in Tris-HCl buffer", "conditions": "40 µM, 1 h, pH 7.5, 37 °C", "how to read": "baseline: 0 h value", "measurement": "remaining intact peptide", "value": "48%"}
{"Compound": "CC(C)C[C@H](NC(=O)[C@H](Cc1ccccc1)NC(=O)CNC(=O)CNC(=O)[C@@H](N)Cc1ccc(O)cc1)C(=O)N[C@@H](CSCB(O)O)C(N)=O", "test": "RP-HPLC", "system": "PBS", "conditions": "concentration not given, 24 h, pH 7.4, added: H2O2 100 µM", "measurement": "peptide remaining intact", "value": "68%"}
{"Compound": "CC(C)[C@@H]1NC(=O)CNC(=O)[C@H](CC(N)=O)NC(=O)[C@H](CCCNC(=N)N)NC(=O)[C@H](Cc2ccc(O)cc2)NC(=O)[C@H](C(C)C)NC(=O)[C@@H](NC(=O)[C@@H](NC(=O)[C@H](CC(N)=O)NC(=O)[C@H](Cc2c[nH]c3ccccc23)NC(=O)[C@H](C)NC(=O)[C@H](Cc2ccccc2)NC(=O)CNC(=O)[C@H](CCCCN)NC(=O)[C@H](Cc2ccccc2)NC(=O)[C@H](Cc2ccccc2)NC(=O)[C@H](CCCCN)NC(=O)OCC2c3ccccc3-c3ccccc32)C(C)C)CSSC[C@@H](C(=O)N[C@@H](Cc2c[nH]cn2)C(=O)N[C@@H](CCCNC(=N)N)C(=O)N[C@@H](CCCNC(=N)N)C(=O)N[C@@H](C)C(=O)N[C@@H](CC(N)=O)C(N)=O)NC(=O)[C@H](C(C)C)NC(=O)[C@H](CCCNC(=N)N)NC1=O", "system": "ICR mouse, serum", "conditions": "ip, 5 mg/kg, 3 d dosing, blood day 5", "measurement": "total protein", "value": "53.5 ± 1.19 g/L"}
{"Compound": "CCc1nn(C)c2nc(-c3ccc(C(=O)O)cc3)nc(NCc3ccccc3)c12", "system": "male CD-1 mouse, plasma", "conditions": "intravenous, 1 mg/kg, 30 min", "measurement": "concentration", "value": "336 ng/mL"}
{"Compound": "CC[C@H](C)[C@H](NC(=O)[C@@H](NC(=O)c1cccc(Cl)c1Cl)C(C)(C)C)C(=O)N[C@H](C(=O)N[C@H](C(=O)N[C@H](C(=O)N[C@@H](CCC(N)=O)C(=O)N[C@@H](Cc1c[nH]cn1)C(=O)N[C@H](CC(C)C)C(=O)N[C@@H](CO)C(=O)NCCC(=O)N[C@@H](CCCCNC(=O)CC[C@@H]1NC(=O)[C@@H](CCCNC(=N)N)NC(=O)[C@H](CCCNC(=N)N)NC(=O)[C@@H](CCCNC(=N)N)NC(=O)[C@H](CCCNC(=N)N)NC(=O)[C@H](Cc2ccc3ccccc3c2)NC(=O)[C@@H](Cc2ccccc2)NC1=O)C(N)=O)[C@@H](C)O)[C@@H](C)CC)C(C)(C)C", "system": "human serum 25%", "conditions": "5 µM, 24 h, 37 °C", "measurement": "degradation", "value": "< 10%"}
{"Compound": "CC(=O)N[C@H](C(=O)N[C@@H](CCCC(=O)OC(C)(C)C)C(=O)N[C@@H](CCC1CCCCC1)C(=O)N[C@@H](CC(=O)O)C(=O)COC(=O)c1c(C)cccc1C)C(C)(C)C", "system": "mouse, whole blood", "conditions": "intraperitoneal, dose not given, 1 h", "measurement": "concentration", "value": "742 µM"}
{"Compound": "CC[C@H](C)[C@H](NC(=O)[C@H](CCCCN)NC(=O)CNC(=O)[C@H](CC(C)C)NC(=O)[C@H](Cc1ccccc1)NC(=O)[C@H](CCCCN)NC(=O)[C@H](CO)NC(=O)[C@H](Cc1ccccc1)NC(=O)[C@H](Cc1c[nH]c2ccccc12)NC(=O)[C@H](CCC(N)=O)NC(=O)[C@@H](NC(=O)[C@H](Cc1ccccc1)NC(=O)CCCCCNC(=O)CN1CCN(CC(=O)O)CCN(CC(=O)O)CCN(CC(=O)O)CC1)C(C)C)C(=O)N[C@@H](CCC(=O)O)C(=O)N1CCC[C@H]1C(=O)N[C@@H](CC(=O)O)C(=O)N[C@H](C(=O)N[C@@H](CO)C(=O)N[C@@H](CCC(N)=O)C(=O)N[C@H](C(=O)N[C@@H](CCC(N)=O)C(=O)N[C@@H](CC(=O)O)C(=O)N1CCC[C@H]1C(=O)N[C@@H](CC(N)=O)C(=O)N[C@@H](CC(=O)O)C(=O)N[C@@H](CCC(N)=O)C(=O)N[C@@H](Cc1ccc(O)cc1)C(=O)N[C@@H](CCC(=O)O)C(=O)N1CCC[C@H]1C(=O)N[C@@H](Cc1ccccc1)C(=O)O)C(C)C)C(C)C [copper-64 labelled]", "test": "dynamic PET", "system": "mouse both sexes, CT26 tumour, checkpoint inhibitor-treated, tumour", "conditions": "intravenous, 100 µCi/mouse, 990 s", "measurement": "SUVmean", "value": "4.01 SUV"}
{"note": "Some of these lines once more:"}
{"Compound": "CCCCCCCCCCCC(=O)C(C)C(=O)N1CCC[C@H]1C(=O)NC(C)(C)C(=O)NC(C)(C)C(=O)NC(C)(C)C(=O)N[C@](C)(CC)C(=O)NCCC(=O)N[C@@H](C)C(=O)N[C@](C)(CC)C(=O)N[C@@H](C)C(=O)N[C@@H](CC(C)C)C(=O)N[C@](C)(CC)C(=O)NCCC(=O)N[C@@H](C)C(=O)N[C@](C)(CC)C(=O)NCCC(=O)N[C@@H](C)C(=O)NC(C)(C)C(=O)NC(C)(C)C(=O)NC(C)(C)C(=O)N[C@@H](C)C(=O)N[C@@H](CC(=O)O)C(=O)O (stereo partly shown)", "test": "LC-MS", "system": "50% pooled human serum in Tris-HCl buffer", "conditions": "40 µM, 1 h, pH 7.5, 37 °C", "how to read": "baseline: 0 h value", "measurement": "remaining intact peptide", "value": "48%"}
